Results gathered from unrelated publications.
Compare with care: the assays were run in different laboratories.
Target: D(2) dopamine receptor (DRD2, Homo sapiens, UniProt P14416)
UniProt P14416, sequence (whole entry, looked up): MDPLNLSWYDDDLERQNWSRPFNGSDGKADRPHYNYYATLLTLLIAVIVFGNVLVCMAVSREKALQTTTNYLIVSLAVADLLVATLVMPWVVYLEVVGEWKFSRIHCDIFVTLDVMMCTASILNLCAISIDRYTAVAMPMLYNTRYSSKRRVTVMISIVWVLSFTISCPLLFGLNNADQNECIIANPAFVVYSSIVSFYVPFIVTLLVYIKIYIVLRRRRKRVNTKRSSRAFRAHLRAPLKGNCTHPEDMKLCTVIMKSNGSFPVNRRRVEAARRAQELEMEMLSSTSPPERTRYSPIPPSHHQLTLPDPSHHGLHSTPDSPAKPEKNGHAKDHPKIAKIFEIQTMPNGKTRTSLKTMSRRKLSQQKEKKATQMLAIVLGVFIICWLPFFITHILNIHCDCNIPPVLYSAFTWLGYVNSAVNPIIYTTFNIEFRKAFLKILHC

| SMILES | test | conditions | inhibition [%] |
| --- | --- | --- | --- |
| COc1ccc(C#CC2=C[C@H]3C[C@@]4(OC(=O)C=C24)[C@H]2CC[C@H](C(OC)OC)N32)cc1 | radioligand binding, radioligand displacement | 10 µM | 16 |
| c1ccc(OC[C@H]2CN(CCN3CCc4ccccc43)CCO2)nc1 | ligand displacement, radioligand | 10 µM | 32.1 |
| CCC(=O)N(C)c1ccc(Cl)c(Cl)c1 | ligand displacement, radioligand | 10 µM | < 10 |
| COC(=O)c1ccccc1NC(=O)CN1CCN(c2cccc(C(F)(F)F)c2)CC1 | enzyme activity, inhibitor | 10 µM | 3.5 |
| O=C(CN1CCO[C@@H](COc2cccc(Cl)c2)C1)N1CCc2ccccc21 | ligand displacement, radioligand | 10 µM | 23.7 |
| NS(=O)(=O)c1ccc(CCNCc2ccc(-c3ccc(Br)cc3)o2)cc1 | enzyme activity, inhibitor | 10 µM | 29.5 |
| COCC(=O)N1CCc2cc(-c3csc(NC(=O)c4cc(OC)cc(OC)c4)n3)ccc21 |  | 10 µM | -3 |
| C[Si](C)(C)C[C@H](CN)CC(=O)O | binding, radioligand binding | 250 µM, together with: [3H]spiperone | 3 |
| Cn1ccc2cc(-n3c(=O)[nH]c4sc5c(c4c3=O)CCCC5)ccc21 | radioligand binding | 10 µM | 14 |
| O=C1c2sc(-c3ccc(N4CCC(F)C4)nc3F)nc2CCN1c1cccnc1 (stereo not drawn) | ligand displacement, radioligand | 1 µM | -8 |
| C[Si]1(C[C@H](CN)CC(=O)O)CCCC1 | binding, radioligand binding | 70 µM, together with: [3H]spiperone | 3 |
| COc1ccc(-c2csc3ncnc(NCCCN4CCN(c5ccccc5)CC4)c23)cc1 | enzyme activity, inhibitor | 10 µM | 62.4 |
| CC1Cc2ccccc2N1C(=O)CN1CCN(Cc2ccccc2)CC1 (stereo not drawn) | ligand displacement, radioligand | 10 µM | 69 |
| COc1cc(CNCC(O)c2ccccc2)cc(Cl)c1OCC(N)=O (stereo not drawn) | enzyme activity, inhibitor | 10 µM | 8.63 |
| CC(C)Cn1c(SCC(=O)N2CCc3ccccc3C2)nc2cc(Cl)ccc2c1=O | ligand displacement, radioligand | 10 µM | -5 |

For quick reference, copied from above:
| SMILES | test | conditions | inhibition [%] |
| --- | --- | --- | --- |
| Cn1ccc2cc(-n3c(=O)[nH]c4sc5c(c4c3=O)CCCC5)ccc21 | radioligand binding | 10 µM | 14 |
| COC(=O)c1ccccc1NC(=O)CN1CCN(c2cccc(C(F)(F)F)c2)CC1 | enzyme activity, inhibitor | 10 µM | 3.5 |
